Experimental data pooled from the literature.
Parts stem from different laboratories: compare values within a part only. “And” joins repeats or separate records; there may be more than shown.

Series 1
Target: Replicase polyprotein 1ab, main protease (rep, Severe acute respiratory syndrome coronavirus 2, UniProt P0DTD1)
Effect on: enzyme activity
Mode: inhibitor
Concentration: 20 µM
Notes: hit confirmation, with DTT
Quantity: inhibition
SMILES = COc1ccc2[nH]c([S+]([O-])Cc3ncc(C)c(OC)c3C)nc2n1 (centres unmarked); result = -9.8%
SMILES = O=[N+]([O-])C(Br)(CO)CO; result = -5.7%
SMILES = O=C(/C=C/c1ccc(O)c(O)c1)O[C@H](Cc1ccc(O)c(O)c1)C(=O)O; result = -29.4% and -17.8%

Series 2
Target: POU, POU domain (Salpingoeca helianthica)
Method: Spec-seq
Molecule type: double-stranded DNA, one strand shown
Medium: in vitro
Concentration: not given
Notes: whole probe, mean of replicates
Baseline: not given
Direction: lower = stronger binding
Quantity: relative binding energy
Residues (chain): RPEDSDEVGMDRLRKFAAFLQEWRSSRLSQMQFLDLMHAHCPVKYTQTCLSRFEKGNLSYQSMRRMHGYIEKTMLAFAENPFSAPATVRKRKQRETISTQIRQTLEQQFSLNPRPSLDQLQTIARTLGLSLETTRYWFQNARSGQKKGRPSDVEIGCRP
Oligonucleotide = GAGTCGTCTCGTCAGCACATGCCGGCCCGTAGAGCACTCAGGTC; result = 1.36 ln ratio
Oligonucleotide = GAGTCGTCTCGTCAGCACGTTGTAATCCGTAGAGCACTCAGGTC; result = 0.138 ln ratio
Oligonucleotide = GAGTCGTCTCGTCAGCACATACGAATCCGTAGAGCACTCAGGTC; result = 1.06 ln ratio
Oligonucleotide = GAGTCGTCTCGTCAGCACTCCATAATCCGTAGAGCACTCAGGTC; result = 0.575 ln ratio

Series 3
Target: Replicase polyprotein 1ab, nsp13 helicase (rep, Severe acute respiratory syndrome coronavirus 2, UniProt P0DTD1)
Mode: inhibitor
Concentration: 20 µM
Quantity: inhibition
Structure (SMILES) = Cc1nccc2c1[nH]c1ccccc12; result = 4.69%
Structure (SMILES) = CC1Sc2c(C(=O)O)c(=O)c3cc(F)c(N4CCNCC4)cc3n21 (centres unmarked); result = 5.84%
Structure (SMILES) = Nc1nc(N)nc(NC2CC2)n1; result = -6.22%
Structure (SMILES) = O=C(O)CSc1nnc(Br)n1-c1ccc(C2CC2)c2ccccc12; result = 11.5%
Structure (SMILES) = COc1ccc2c3c1O[C@H]1C[C@@H](O)C=C[C@@]31CCN(C)C2; result = 1.82%
Structure (SMILES) = NC(=O)[C@@H](CC1CC1)[C@@H](CCC(F)(F)F)C(=O)N[C@H]1N=C(c2ccccc2)c2cccc(F)c2NC1=O; result = 3.91%
Structure (SMILES) = CNC(C)(C)Cc1ccccc1; result = 1.5%
Structure (SMILES) = CC#C[C@]1(O)CC[C@H]2[C@@H]3CCC4=CC(=O)CCC4=C3[C@@H](c3ccc(N(C)C)cc3)C[C@@]21C; result = -1.41%
Structure (SMILES) = CC(C)(F)C[C@H](N[C@@H](c1ccc(-c2ccc(S(C)(=O)=O)cc2)cc1)C(F)(F)F)C(=O)NC1(C#N)CC1; result = 3%
Structure (SMILES) = O=Nc1c(-c2c(O)[nH]c3cc(Br)ccc23)[nH]c2ccccc12; result = 10.6%
Structure (SMILES) = COc1cc2c(cc1O)CC[C@@H]1[C@@H]2CC[C@]2(C)[C@@H](O)CC[C@@H]12; result = 0.97%
Structure (SMILES) = CN(C)CC(c1ccc(O)cc1)C1(O)CCCCC1 (centres unmarked); result = 5.86%
Structure (SMILES) = Cc1cc(C)c2c(N)c(C(=O)NCc3ccc(Cl)cc3)sc2n1; result = 10.1%
Structure (SMILES) = CC1(C(=O)O)NCCc2cc(O)c(O)cc21 (centres unmarked); result = 8.76%
Structure (SMILES) = COc1cccc2c1c(O)c(C(=O)N(C)c1ccc(C(F)(F)F)cc1)c(=O)n2C; result = 0.37%
Structure (SMILES) = Nc1nc(-c2nn(Cc3ccccc3F)c3ncccc23)ncc1C1CC1; result = 14.7%
Structure (SMILES) = Cc1cccc(-c2[nH]c(C(C)(C)C)nc2-c2ccc3nccnc3c2)n1; result = 10.2%
Structure (SMILES) = CC(C)(C)CC(C)(C)c1cc(Cc2cc(C(C)(C)CC(C)(C)C)cc(-n3nc4ccccc4n3)c2O)c(O)c(-n2nc3ccccc3n2)c1; result = 11.2%
Structure (SMILES) = CCO[C@@H](Cc1ccc(OCCc2ccc(OS(C)(=O)=O)cc2)cc1)C(=O)O; result = -4.25%
Structure (SMILES) = CC(C)C(=O)Nc1ccc([N+](=O)[O-])c(C(F)(F)F)c1; result = -1.84%
Structure (SMILES) = O=C1OC(OC(=O)c2cccnc2Nc2cccc(C(F)(F)F)c2)c2ccccc21 (centres unmarked); result = 0.96%
Structure (SMILES) = CCCCNc1nc(N)c2[nH]c(=O)n(Cc3ccc(OCCN(C)C)nc3)c2n1; result = 4.43%
Structure (SMILES) = O=C1CC[C@@](c2ccccc2)(C2CCN(Cc3ccc(I)cc3)CC2)C(=O)N1; result = 4.47%

Series 4
Target: Sal-like protein 4, full length isoform A (SALL4, Homo sapiens, UniProt Q9UJQ4, residues 1-1053)
Chain of UniProt Q9UJQ4 (whole entry, looked up): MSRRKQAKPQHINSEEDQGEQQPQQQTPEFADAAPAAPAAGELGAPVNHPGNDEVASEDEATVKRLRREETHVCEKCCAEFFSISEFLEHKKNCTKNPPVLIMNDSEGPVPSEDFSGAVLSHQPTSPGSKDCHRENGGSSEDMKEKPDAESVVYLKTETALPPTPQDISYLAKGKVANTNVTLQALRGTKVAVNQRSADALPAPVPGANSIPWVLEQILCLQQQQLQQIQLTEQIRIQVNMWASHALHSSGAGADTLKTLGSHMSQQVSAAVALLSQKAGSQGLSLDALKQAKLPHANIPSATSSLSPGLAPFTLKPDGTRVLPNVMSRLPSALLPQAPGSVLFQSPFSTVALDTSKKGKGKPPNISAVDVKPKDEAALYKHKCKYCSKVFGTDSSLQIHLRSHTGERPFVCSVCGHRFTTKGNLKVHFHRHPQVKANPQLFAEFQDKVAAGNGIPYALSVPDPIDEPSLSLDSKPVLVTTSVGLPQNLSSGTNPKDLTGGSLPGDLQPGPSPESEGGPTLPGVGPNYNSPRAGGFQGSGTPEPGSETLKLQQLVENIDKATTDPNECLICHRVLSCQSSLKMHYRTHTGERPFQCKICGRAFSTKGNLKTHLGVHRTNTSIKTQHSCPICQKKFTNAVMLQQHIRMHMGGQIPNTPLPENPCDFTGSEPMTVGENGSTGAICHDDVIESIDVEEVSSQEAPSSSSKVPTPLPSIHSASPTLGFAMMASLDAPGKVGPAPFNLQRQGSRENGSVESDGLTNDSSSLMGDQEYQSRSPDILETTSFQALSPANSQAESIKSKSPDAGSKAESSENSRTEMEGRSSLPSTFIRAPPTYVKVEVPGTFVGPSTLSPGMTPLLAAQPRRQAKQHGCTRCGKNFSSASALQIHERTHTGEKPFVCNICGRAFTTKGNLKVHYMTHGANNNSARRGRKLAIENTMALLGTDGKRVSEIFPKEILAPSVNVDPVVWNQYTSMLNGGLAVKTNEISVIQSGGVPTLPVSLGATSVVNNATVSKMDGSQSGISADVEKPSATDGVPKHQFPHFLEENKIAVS
Method: universal PBM
Molecule type: double-stranded DNA, one strand shown
Medium: in vitro
Concentration: 600 nM
Notes: 8-mer, flanks averaged, mean of replicates
Direction: higher = stronger binding
Quantity: E-score
Oligonucleotide = AAATGAGG; result = 0.0362
Oligonucleotide = CTGAGTAA; result = 0.123
Oligonucleotide = CGTCCGGA; result = -0.258
Oligonucleotide = ATAAGAGA; result = 0.264
Oligonucleotide = CTTTATTA; result = 0.363
Oligonucleotide = CGGATGAG; result = -0.127
Oligonucleotide = AACAAGTG; result = 0.0657
Oligonucleotide = CCCACAAA; result = 0.121

Series 5
Target: Centromere-binding protein 1, full length, His-tagged (CBF1, Saccharomyces cerevisiae, UniProt P17106, residues 1-351)
Chain of UniProt P17106 (whole entry, looked up): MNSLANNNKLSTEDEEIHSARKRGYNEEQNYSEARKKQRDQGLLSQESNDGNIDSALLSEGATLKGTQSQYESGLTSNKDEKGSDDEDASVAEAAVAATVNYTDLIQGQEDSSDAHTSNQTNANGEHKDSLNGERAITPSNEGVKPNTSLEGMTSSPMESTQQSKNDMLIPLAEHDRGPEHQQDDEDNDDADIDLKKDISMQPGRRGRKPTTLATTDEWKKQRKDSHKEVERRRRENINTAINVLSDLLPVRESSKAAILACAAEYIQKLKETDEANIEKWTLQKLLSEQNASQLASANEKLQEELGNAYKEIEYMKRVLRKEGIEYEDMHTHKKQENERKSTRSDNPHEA
Method: competition protein-binding microarray
Molecule type: double-stranded DNA, one strand shown
Medium: in vitro
Concentration: 2 µM
Notes: whole 60-bp probe, lowest competitor level
Added: Pho4 competitor, 0.05 µM
Direction: higher = stronger binding
Quantity: fluorescence intensity
Constant ends, left off below: … GTCTTGATTCGCTTGACGCTGCTG
Oligonucleotide = TGCGCAACAACTTGCTAGGTGGGTGTATGTCTAGAA; result = 72.8 a.u.
Oligonucleotide = CTAACGAAGGTTTTTCACGTGACATACAAGCCAAGT; result = 5330 a.u.
Oligonucleotide = GTCTTGTCTCATTGGCCGGTGGGTGTCCCCACTTCA; result = 66.7 a.u.
Oligonucleotide = GGTGTGCGGTTGCGGGGCGTGGGTATGCGCGCCGTT; result = 94.1 a.u.
Oligonucleotide = AGTAATAGATCTCGGCACGTGGCCGCATTGACTCCG; result = 1540 a.u.
Oligonucleotide = CATACCCAACCTTGAGGAGTGGGTGAAGATATTTGT; result = 62.1 a.u.
Oligonucleotide = TTGCATAGGCAGCATATCGCCCCCAGTAATCATTGG; result = 72.3 a.u.
Oligonucleotide = ATATCGTCGAATTGTCATGTGATGAAGCCAATTTAT; result = 1250 a.u.

Further values, each from its own experiment
Compound = Br.CN1[C@@H]2CC[C@H]1C[C@@H](OC(=O)C(O)c1ccccc1)C2 (some centres unmarked); cell line = HEK-293T-ACE2; concentration = concentration not given; baseline = vehicle; quantity = cell number; result = 105%
